Results from different studies.
Values joined by “and” are separate records of one study, mostly repeats; a detail may differ.
Sequence of UniProt P11712 (whole entry, looked up): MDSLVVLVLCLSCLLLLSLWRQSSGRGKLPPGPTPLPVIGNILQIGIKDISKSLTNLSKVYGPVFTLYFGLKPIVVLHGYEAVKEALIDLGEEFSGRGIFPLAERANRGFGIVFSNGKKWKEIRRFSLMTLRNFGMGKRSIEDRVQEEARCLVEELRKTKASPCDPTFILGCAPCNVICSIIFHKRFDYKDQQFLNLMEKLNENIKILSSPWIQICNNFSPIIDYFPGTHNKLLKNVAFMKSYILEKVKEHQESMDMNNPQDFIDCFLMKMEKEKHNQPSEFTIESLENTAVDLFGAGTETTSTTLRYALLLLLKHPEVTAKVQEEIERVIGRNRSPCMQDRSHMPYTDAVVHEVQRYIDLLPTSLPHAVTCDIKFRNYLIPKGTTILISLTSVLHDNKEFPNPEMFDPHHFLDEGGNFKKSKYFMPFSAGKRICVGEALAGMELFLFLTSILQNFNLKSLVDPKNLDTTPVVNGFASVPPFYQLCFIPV
Sequence of UniProt Q9H422 (whole entry, looked up): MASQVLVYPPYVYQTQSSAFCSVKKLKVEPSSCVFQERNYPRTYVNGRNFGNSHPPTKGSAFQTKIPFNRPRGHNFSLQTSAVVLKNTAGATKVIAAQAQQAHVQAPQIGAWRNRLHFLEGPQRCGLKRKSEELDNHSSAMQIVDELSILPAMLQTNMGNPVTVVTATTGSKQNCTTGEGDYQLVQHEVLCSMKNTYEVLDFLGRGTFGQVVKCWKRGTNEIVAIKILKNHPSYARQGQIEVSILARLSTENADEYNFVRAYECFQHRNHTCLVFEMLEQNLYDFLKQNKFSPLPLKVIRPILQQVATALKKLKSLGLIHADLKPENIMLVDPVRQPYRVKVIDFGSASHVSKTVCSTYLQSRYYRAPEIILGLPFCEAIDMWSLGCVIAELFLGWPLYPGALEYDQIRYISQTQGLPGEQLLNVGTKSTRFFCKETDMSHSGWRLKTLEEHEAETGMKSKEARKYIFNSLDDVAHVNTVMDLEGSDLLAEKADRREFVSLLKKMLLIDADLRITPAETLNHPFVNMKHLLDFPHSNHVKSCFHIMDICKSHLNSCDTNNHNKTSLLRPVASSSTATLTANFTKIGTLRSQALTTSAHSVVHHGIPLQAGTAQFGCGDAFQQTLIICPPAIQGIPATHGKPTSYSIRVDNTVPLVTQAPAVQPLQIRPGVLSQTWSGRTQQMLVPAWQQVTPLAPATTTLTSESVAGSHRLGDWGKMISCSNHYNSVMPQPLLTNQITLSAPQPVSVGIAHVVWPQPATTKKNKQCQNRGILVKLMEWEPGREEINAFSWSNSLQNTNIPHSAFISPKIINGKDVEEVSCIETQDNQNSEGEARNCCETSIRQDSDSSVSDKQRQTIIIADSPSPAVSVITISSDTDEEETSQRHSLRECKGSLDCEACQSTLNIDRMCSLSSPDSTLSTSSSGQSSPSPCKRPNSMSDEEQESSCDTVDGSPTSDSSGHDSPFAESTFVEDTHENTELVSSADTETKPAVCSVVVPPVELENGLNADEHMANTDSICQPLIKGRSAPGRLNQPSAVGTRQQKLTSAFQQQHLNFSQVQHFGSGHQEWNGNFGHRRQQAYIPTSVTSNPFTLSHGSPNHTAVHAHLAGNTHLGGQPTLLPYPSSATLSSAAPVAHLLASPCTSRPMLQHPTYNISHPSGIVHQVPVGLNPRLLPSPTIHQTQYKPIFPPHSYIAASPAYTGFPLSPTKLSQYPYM

SMILES | target or system | test | test system | setting | how to read | quantity | value
c1ccc(-c2n[nH]cc2-c2ccnc3ccccc23)nc1 | FPK1 (Candida albicans) | kinase binding, MIB/MS competition | Candida albicans lysate | 10 µM | relative to: DMSO | log2 fold change | -0.1
CNS(=O)(=O)Nc1nccc(Cc2c(C)c3ccc(Oc4ncccc4F)cc3oc2=O)c1F | NCI-H2291 | cell viability | – | 7 days | – | IC50 | 0.0246 µM
C=CC(=O)N1[C@@H](c2ccc3c(c2)OCO3)c2[nH]c3ccccc3c2C[C@H]1C(=O)N1CCN(C)CC1 | human cyclin E1 wild type-3xFLAG:CDK2 | co-IP with TMT proteomics, item: PCMT1 | – | concentration not given, P22061 | relative to: wild type DMSO | relative co-enrichment | 119%
CN(C)CCCCCN(C)Cc1cc2ccccc2o1 | Trypanosoma cruzi | reporter mRNA translation, inhibitor, item: Renilla luciferase mRNA | cell-free extract | concentration not given, test 2 | relative to: positive over negative control | translation activity | 103%
O=c1[nH]cc(C(c2cccc(C(F)(F)F)c2)c2c[nH]c(=O)[nH]c2=O)c(=O)[nH]1 | HIV-1 subtype C | p24 antigen production, p24 ELISA | – | 3.9 µg/mL | – | inhibition | < 25%
O[C@@H](COc1ccc2cc(Br)ccc2c1)Cn1ccnc1 | Trypanosoma cruzi | reporter mRNA translation, inhibitor, item: Renilla luciferase mRNA | cell-free extract | concentration not given, test 2 | relative to: positive over negative control | translation activity | 97.8%
CCCC[C@H](NC(C)=O)C(=O)N[C@@H](CO)C(=O)N[C@H](C(=O)N1CCC[C@H]1C(=O)N[C@]1(C)CCCCCCC=CCCC[C@@](C)(C(=O)N[C@@H](Cc2ccccc2)C(=O)N[C@@H](CCCCN)C(=O)N[C@@H](CCCNC(=N)N)C(=O)N[C@@H](CC(C)C)C(=O)N[C@@H](CCC(N)=O)C(N)=O)NC(=O)[C@H](CCCNC(=N)N)NC(=O)[C@H](CCCC)NC(=O)[C@H](CC(C)C)NC(=O)[C@H](CCCNC(=N)N)NC(=O)[C@H](CCCNC(=N)N)NC(=O)[C@H](CCCNC(=N)N)NC1=O)[C@@H](C)O | proteinase K | LC-MS | – | 25 µM, 307.5 min, pH 7.4 | – | remaining peptide | 61.9%
CNC(=O)C1CCCN(C(=O)C2CC3CCC2N3C(=O)[C@@H]2C[C@@H](O)CN2C(=O)NCc2cccc(Cl)c2F)C1 (mixture of isomers) | Cytochrome P450 2C9 (CYP2C9, Homo sapiens, UniProt P11712) | preincubation with NADPH | human | 5.56 µM | relative to: negative control | remaining activity | 105% and 109% and 95.5%
Cc1nn(-c2cccc(N)c2)c(=O)c2cnc(Nc3ccc(N4CCNCC4)cc3)nc12 | Homeodomain-interacting protein kinase 3 (HIPK3, Homo sapiens, UniProt Q9H422) | enzyme activity, inhibitor | – | – | – | IC50 | > 10 µM
CC(C)c1ccc(N(C)c2ccc3c(c2)OCC[C@H]3CNc2cnccc2C(=O)O)cc1 | SNU-C1 | cell viability, CellTiter-Glo | – | 7 days | – | IC50 | ≥ 10 µM
Cc1ncsc1-c1ccc(C(C)NC(=O)C2CC(O)CN2C(=O)C(NC(=O)CCCCCCCCCCN2CCCC(Nc3ncc(Cl)c(Nc4ccccc4S(=O)(=O)C(C)C)n3)C2)C(C)(C)C)cc1 (centres unmarked) | 22Rv1 | RNA-seq, item: RTL6 mRNA | – | concentration not given | relative to: DMSO | log2 fold change | -1.27
COC1CN([C@H]2CC[C@H]([C@@]3(C)Oc4c(Cl)cc(C(=O)NCc5c(SC)cc(C)[nH]c5=O)c(C)c4O3)CC2)C1 | – | RNA-seq, item: NLRP6 mouse homolog | mouse, HT-1376 xenograft, whole blood | dose not given | relative to: vehicle | log2 fold change | 0.746
Nc1ncc(-c2cc(-c3cnn(CC(F)(F)F)c3)ncc2F)nc1C(=O)NC1CNCC(F)C1 (centres unmarked) | BMPR1A | KINOMEscan | – | 1 µM | relative to: DMSO control | remaining binding | 59%
CCOc1cncc(-c2ccc(NC(=O)C3(c4ccnc(NS(=O)(=O)C5CC5)n4)CCOCC3)nc2)n1 | 498 | cell growth, CellTiter-Glo | – | 72 h | – | IC50 | 10 µM
CN1CCCNC(=O)c2cccc(c2)C(=O)NCCCN(C)CCCNc2cccc3c2C(=O)c2cccc(c2C3=O)NCCC1 | SAS | RNA-Seq, item: SLC25A43 mRNA | – | 1 µM, 6 h | relative to: untreated cells | log2 fold change | -0.992
Cn1ncc2cc(-c3cncc(Cl)c3N3CCC4(CCNC4=O)CC3)ccc21 | LS174T | gene expression, microarray, item: RPSA mRNA | – | concentration not given, 4 h | relative to: untreated cells | log2 fold change | 1.8
C=C(NC(=O)c1csc(-c2nc3c(cc2O)-c2nc(cs2)C(=O)NC(C(C)O)C(=O)NC(=C(C)OC)c2nc(cs2)C(=O)NC2c4nc(cs4)C(=O)NC(COC(=O)c4c5c6c(cccc6n4O)COC(=O)C(OC4CC(C)(O)C(N(C)C)C(C)O4)C2OC5)c2nc-3cs2)n1)C(N)=O (centres unmarked) | Streptococcus pneumoniae | – | -25, immunocompromised mice, lung infection, lung | 16 mg/kg/day three times daily, 24 h post-dose | – | bacterial load | 5.48 log CFU/g
CCN(CC)CC(=O)Nc1cccc(-n2cc(-c3ccc4ccc(-c5cn(-c6cccc(NC(=O)CN(CC)CC)c6)nn5)cc4c3)nn2)c1 | RCC4 | PCR angiogenesis array, item: CXCL10 | – | 5 x IC50, 2 h, normoxia | relative to: untreated | fold regulation | 1.4
CC1=C[C@@H](O/C=C2/C(=O)O[C@H]3c4ccccc4C[C@@H]23)OC1=O | Phelipanche ramosa | seed germination | – | 1 µM | relative to: (±)-compound | Emax | 100%
C=CC(=O)Nc1cccc(Cn2ncc3cnc(Nc4cnn(CCOC)c4)nc32)c1 | ACVR1 human | binding, KINOMEscan | – | 100 nM | lower = stronger binding | percent of control | 97%

Some of these lines once more:
SMILES | target or system | test | test system | setting | how to read | quantity | value
CCN(CC)CC(=O)Nc1cccc(-n2cc(-c3ccc4ccc(-c5cn(-c6cccc(NC(=O)CN(CC)CC)c6)nn5)cc4c3)nn2)c1 | RCC4 | PCR angiogenesis array, item: CXCL10 | – | 5 x IC50, 2 h, normoxia | relative to: untreated | fold regulation | 1.4
CC1=C[C@@H](O/C=C2/C(=O)O[C@H]3c4ccccc4C[C@@H]23)OC1=O | Phelipanche ramosa | seed germination | – | 1 µM | relative to: (±)-compound | Emax | 100%
C=CC(=O)Nc1cccc(Cn2ncc3cnc(Nc4cnn(CCOC)c4)nc32)c1 | ACVR1 human | binding, KINOMEscan | – | 100 nM | lower = stronger binding | percent of control | 97%
